Measurements from different studies.
± gives the spread as reported.
HLA class I histocompatibility antigen, A alpha chain allele A*80:01: HLA class I histocompatibility antigen, A alpha chain, allele A*80:01 (Homo sapiens, UniProt P04439)
MCA2: Metacaspase-2 (MCA2, Trypanosoma brucei brucei, UniProt Q585F3)
PTPN1: Tyrosine-protein phosphatase non-receptor type 1 (PTPN1, Homo sapiens, UniProt P18031)
FURIN: Furin (FURIN, Homo sapiens, UniProt P09958)

Sequences of proteins named here, by UniProt entry; tags and fusion partners are left off. Residues count along the entry.
UniProt Q585F3, whole entry, looked up: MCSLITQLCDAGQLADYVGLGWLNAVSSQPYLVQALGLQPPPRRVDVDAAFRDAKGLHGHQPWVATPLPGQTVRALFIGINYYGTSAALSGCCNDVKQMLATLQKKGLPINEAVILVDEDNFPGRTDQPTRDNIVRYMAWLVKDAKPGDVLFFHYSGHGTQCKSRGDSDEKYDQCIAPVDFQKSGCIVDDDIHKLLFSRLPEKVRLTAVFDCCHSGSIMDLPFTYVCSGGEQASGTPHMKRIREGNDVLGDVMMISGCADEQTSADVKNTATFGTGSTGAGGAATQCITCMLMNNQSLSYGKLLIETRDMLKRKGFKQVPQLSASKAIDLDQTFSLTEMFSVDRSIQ
UniProt P18031, 1-321 limits assumed: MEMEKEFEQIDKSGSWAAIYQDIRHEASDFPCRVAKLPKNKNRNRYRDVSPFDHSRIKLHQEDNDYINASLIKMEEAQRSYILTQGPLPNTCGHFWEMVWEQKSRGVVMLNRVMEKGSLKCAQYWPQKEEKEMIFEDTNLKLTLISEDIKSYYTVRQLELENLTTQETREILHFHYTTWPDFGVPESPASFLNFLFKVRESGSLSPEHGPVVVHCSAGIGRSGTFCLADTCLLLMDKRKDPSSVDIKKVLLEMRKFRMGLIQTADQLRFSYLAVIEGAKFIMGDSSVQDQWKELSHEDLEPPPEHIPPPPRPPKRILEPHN
UniProt P09958, whole entry, looked up: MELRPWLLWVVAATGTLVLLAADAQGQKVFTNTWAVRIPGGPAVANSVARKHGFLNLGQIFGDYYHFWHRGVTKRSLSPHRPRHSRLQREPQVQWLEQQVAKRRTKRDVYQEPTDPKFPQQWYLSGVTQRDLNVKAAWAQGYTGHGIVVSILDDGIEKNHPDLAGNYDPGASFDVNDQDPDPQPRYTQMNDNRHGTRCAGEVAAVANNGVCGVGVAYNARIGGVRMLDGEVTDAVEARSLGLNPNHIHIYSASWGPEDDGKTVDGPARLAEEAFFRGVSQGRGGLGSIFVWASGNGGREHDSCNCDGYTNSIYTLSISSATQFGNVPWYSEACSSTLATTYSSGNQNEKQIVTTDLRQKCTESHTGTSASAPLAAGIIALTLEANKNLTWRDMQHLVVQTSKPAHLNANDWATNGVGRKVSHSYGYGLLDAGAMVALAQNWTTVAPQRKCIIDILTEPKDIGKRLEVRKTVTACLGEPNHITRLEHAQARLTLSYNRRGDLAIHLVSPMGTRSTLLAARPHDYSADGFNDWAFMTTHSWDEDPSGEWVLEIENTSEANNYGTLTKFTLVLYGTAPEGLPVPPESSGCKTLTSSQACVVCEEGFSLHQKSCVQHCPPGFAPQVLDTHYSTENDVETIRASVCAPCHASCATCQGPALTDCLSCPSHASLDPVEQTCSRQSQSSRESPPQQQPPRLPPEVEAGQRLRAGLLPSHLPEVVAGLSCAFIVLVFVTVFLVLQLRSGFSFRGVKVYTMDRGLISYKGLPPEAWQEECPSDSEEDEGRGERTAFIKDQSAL
UniProt Q9Y5Y6, 615-854 limits assumed: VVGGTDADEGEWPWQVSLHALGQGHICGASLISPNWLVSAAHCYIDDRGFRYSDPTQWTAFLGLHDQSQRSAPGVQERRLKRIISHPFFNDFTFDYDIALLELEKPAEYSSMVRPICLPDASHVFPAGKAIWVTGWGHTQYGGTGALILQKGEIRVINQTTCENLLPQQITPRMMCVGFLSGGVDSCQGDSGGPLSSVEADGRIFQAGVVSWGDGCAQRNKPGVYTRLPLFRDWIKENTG
UniProt Q99816, whole entry, looked up: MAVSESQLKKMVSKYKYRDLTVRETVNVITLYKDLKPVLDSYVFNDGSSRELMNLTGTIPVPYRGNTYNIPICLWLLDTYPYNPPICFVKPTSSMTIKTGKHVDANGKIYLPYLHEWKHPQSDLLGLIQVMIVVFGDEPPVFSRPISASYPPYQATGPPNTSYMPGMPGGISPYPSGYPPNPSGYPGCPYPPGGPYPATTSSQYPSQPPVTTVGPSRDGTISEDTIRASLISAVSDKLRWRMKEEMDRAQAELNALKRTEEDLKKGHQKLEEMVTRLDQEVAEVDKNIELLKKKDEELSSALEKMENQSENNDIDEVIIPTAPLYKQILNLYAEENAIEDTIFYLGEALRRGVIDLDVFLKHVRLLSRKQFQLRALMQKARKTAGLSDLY
UniProt P56817, 46-501 limits assumed: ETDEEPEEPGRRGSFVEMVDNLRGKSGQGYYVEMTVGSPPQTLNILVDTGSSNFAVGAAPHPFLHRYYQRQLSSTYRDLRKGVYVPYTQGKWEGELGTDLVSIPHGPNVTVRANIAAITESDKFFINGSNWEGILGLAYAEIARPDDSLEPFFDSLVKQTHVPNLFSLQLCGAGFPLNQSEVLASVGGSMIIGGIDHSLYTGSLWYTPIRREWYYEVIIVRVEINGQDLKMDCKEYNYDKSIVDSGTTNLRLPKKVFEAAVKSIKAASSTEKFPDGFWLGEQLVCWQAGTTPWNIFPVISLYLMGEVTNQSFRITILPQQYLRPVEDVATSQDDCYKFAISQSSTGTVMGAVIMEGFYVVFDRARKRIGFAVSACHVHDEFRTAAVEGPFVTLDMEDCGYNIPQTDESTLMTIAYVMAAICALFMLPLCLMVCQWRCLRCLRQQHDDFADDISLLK
UniProt Q5BJF2, whole entry: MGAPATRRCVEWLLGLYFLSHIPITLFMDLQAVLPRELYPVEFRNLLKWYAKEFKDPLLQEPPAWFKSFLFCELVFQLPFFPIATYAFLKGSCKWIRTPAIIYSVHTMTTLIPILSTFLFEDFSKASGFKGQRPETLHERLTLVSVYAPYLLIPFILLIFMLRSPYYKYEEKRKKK

Structure (SMILES) = CC(C)C[C@H](NC(=O)[C@H](CC(N)=O)NC(=O)[C@H](CO)NC(=O)[C@@H](N)Cc1c[nH]cn1)C(=O)N[C@@H](CC(N)=O)C(=O)N[C@@H](CC(=O)O)C(=O)N[C@H](C(=O)N[C@H](C(=O)N[C@@H](Cc1ccc(O)cc1)C(=O)O)[C@@H](C)O)[C@@H](C)O; target = HLA class I histocompatibility antigen, A alpha chain allele A*80:01; scale = direction not given; quantity = z-score; result = 0.38
Structure (SMILES) = C[C@H](NC(=O)[C@H](CCCCN)NC(=O)c1ccccc1N)C(=O)N[C@@H](CCCNC(=N)N)C(=O)N[C@@H](CO)C(=O)N[C@@H](CO)C(=O)NCC(=O)N[C@@H](CCC(N)=O)C(=O)NCCNc1ccc([N+](=O)[O-])cc1[N+](=O)[O-]; target = MCA2; test = enzyme activity, substrate, FRET hydrolysis; test system = Trypanosoma brucei; conditions = pH 7.4; quantity = Km; result = 300 nM
Structure (SMILES) = N=C(N)c1ccc(C(NC(=O)COCC(=O)NCCCOCCOCCOCCCNC(=O)CCCC[C@@H]2SC[C@@H]3NC(=O)N[C@@H]32)P(=O)(Oc2ccccc2)Oc2ccccc2)cc1 (some centres unmarked); target = Suppressor of tumorigenicity 14 protein (ST14, Homo sapiens, UniProt Q9Y5Y6); test = irreversible inhibitor; quantity = kinact/KI; result = 50 ± 2 M⁻¹ s⁻¹
Structure (SMILES) = CC(C)[C@H](NC(=O)[C@H](CCCNC(=N)N)NC(=O)CN)C(=O)N[C@H](C(=O)N[C@@H](CCC(=O)O)C(=O)N1CCC[C@H]1C(=O)N[C@@H](CO)C(=O)N[C@@H](C)C(=O)N1CCC[C@H]1C(=O)N1CCC[C@H]1C(=O)N[C@@H](Cc1c[nH]c2ccccc12)C(=O)N[C@@H](CCC(=O)O)C(=O)NCC(=O)N1CCC[C@H]1C(=O)O)C(C)C; target = Tumor susceptibility gene 101 protein, UEV domain (Homo sapiens, UniProt Q99816); test = thermal stability; conditions = 800 µM; scale = reference: free protein, higher = stabilisation; quantity = Tm shift; result = 3.7 °C
Structure (SMILES) = C[C@H](NC(=O)[C@H](CCCCN)NC(=O)c1ccccc1N)C(=O)N[C@@H](CCCNC(=N)N)C(=O)N[C@@H](CO)C(=O)N[C@@H](CO)C(=O)N[C@@H](C)C(=O)N[C@@H](CCC(N)=O)C(=O)NCCNc1ccc([N+](=O)[O-])cc1[N+](=O)[O-]; target = MCA2; test = substrate, FRET; test system = Trypanosoma brucei; conditions = pH 7.4, 25 °C, 2.5 mM DTT, together with: 1 mM CaCl2; quantity = kcat/KM; result = 2100 mM⁻¹ s⁻¹
Structure (SMILES) = CC[C@H](C)[C@H](NC(=O)[C@H](CCC(=O)O)NC(=O)[C@H](CCC(=O)O)NC(=O)[C@@H](NC(=O)[C@@H](N)CCCCN)[C@@H](C)O)C(=O)N[C@@H](CO)C(=O)N[C@@H](CCC(=O)O)C(=O)N[C@H](C(=O)N[C@@H](CC(N)=O)C(=O)N[C@@H](CC(C)C)[C@@H](O)CC(=O)N[C@H](C(=O)N[C@@H](C)C(=O)N[C@@H](CCC(=O)O)C(=O)N[C@@H](Cc1ccccc1)C(=O)O)C(C)C)C(C)C; target = Beta-secretase 1 (BACE1, Homo sapiens, UniProt P56817); test = APP cleavage, inhibitor, antibody-amplified SPR; conditions = 40 nM, 10 nM enzyme, together with: immobilised APP substrate; scale = reference: buffer only; quantity = signal decrease; result = ~30%
Structure (SMILES) = CC(=O)N[C@@H](CCCNC(=N)N)C(=O)N[C@H](C(=O)N[C@@H](CC(C)C)C(=O)N[C@@H](C)C(=O)N[C@@H](C)C(=O)N[C@@H](Cc1ccc(OP(=O)(O)O)cc1)C(=O)N[C@@H](C)C(=O)N[C@@H](C)C(=O)N[C@@H](C)C(=O)N[C@@H](C)C(N)=O)[C@@H](C)O; target = PTPN1; test = substrate, continuous UV; conditions = pH 7.4; quantity = kcat/Km; result = 0.51 µM⁻¹ s⁻¹
Structure (SMILES) = CC(C)C[C@H](NC(=O)[C@@H](NC(=O)[C@H](Cc1ccccc1)NC(=O)[C@H](CCCNC(=N)N)NC(=O)[C@H](CCCCN)NC(=O)[C@H](CCC(N)=O)NC(=O)[C@H](CCCNC(=N)N)NC(=O)[C@H](Cc1c[nH]cn1)NC(=O)[C@H](CCCNC(=N)N)NC(=O)c1ccccc1N)C(C)C)C(=O)N[C@@H](CO)C(=O)N[C@@H](CCC(N)=O)C(=O)NCCNc1ccc([N+](=O)[O-])cc1[N+](=O)[O-]; target = FURIN; test = substrate; conditions = pH 7; quantity = kcat; result = 1.3 s⁻¹
Structure (SMILES) = CSCC[C@H](N)C(=O)N[C@H](C(=O)N[C@@H](Cc1ccc(O)cc1)C(=O)N[C@@H](CCCCN)C(=O)N[C@@H](C)C(=O)N[C@@H](C)C(=O)N[C@H](C(=O)N[C@@H](CC(C)C)C(=O)O)C(C)C)[C@@H](C)O; target = HLA class I histocompatibility antigen, A alpha chain, allele A*26:01 (Homo sapiens, UniProt P04439); scale = direction not given; quantity = z-score; result = 0.12
Structure (SMILES) = CC(C)C[C@H](NC(=O)[C@H](C)NC(=O)[C@H](Cc1ccc(O)cc1)NC(=O)[C@H](CCCNC(=N)N)NC(=O)[C@H](CCCCN)NC(=O)[C@H](CCCNC(=N)N)NC(=O)[C@H](CCCNC(=N)N)NC(=O)[C@@H](NC(=O)[C@H](CC(N)=O)NC(=O)c1ccccc1N)C(C)C)C(=O)N[C@H](C(=O)N[C@@H](CCC(N)=O)C(=O)NCCNc1ccc([N+](=O)[O-])cc1[N+](=O)[O-])[C@@H](C)O; target = FURIN; test = substrate; conditions = pH 7; quantity = kcat; result = 2.4 s⁻¹
Structure (SMILES) = CC[C@H](C)[C@H](NC(=O)[C@@H](N)CCC(=O)O)C(=O)N1CCC[C@H]1C(=O)N[C@@H](CC(=O)O)C(=O)N[C@H](C(=O)N[C@@H](CC(C)C)C(=O)N[C@@H](CC(N)=O)C(=O)N[C@@H](CO)C(=O)N[C@@H](CC(C)C)C(=O)O)C(C)C; target = HLA class I histocompatibility antigen, A alpha chain, allele A*25:01 (Homo sapiens, UniProt P04439); scale = direction not given; quantity = z-score; result = -3.49
Structure (SMILES) = CC[C@H](C)[C@H](NC(=O)CNC(=O)c1ccccc1N)C(=O)N[C@@H](CCCNC(=N)N)C(=O)N[C@@H](CCCNC(=N)N)C(=O)N[C@@H](CCCCN)C(=O)N[C@@H](CCCNC(=N)N)C(=O)N[C@@H](CO)C(=O)N[C@H](C(=O)N[C@@H](CO)C(=O)N[C@@H](Cc1cnc[nH]1)C(=O)N[C@@H](CCC(N)=O)C(=O)NCCNc1ccc([N+](=O)[O-])cc1[N+](=O)[O-])C(C)C; target = FURIN; test = substrate; conditions = concentration not given; scale = reference: Ac-RVRR-MCA; quantity = relative hydrolysis rate; result = ~30
Structure (SMILES) = CC(C)[C@H](NC(=O)[C@@H]1CCCN1C(=O)[C@@H]1CCCN1C(=O)[C@H](Cc1ccccc1)NC(=O)[C@@H](NC(=O)[C@@H](NC(=O)[C@H](C)NC(=O)[C@H](C)NC(=O)[C@@H](N)CC(=O)O)C(C)C)C(C)C)C(=O)O; target = HLA class I histocompatibility antigen, A alpha chain, allele A*69:01 (Homo sapiens, UniProt P04439); scale = direction not given; quantity = z-score; result = -4.33
Structure (SMILES) = CC(=O)N[C@@H](C)C(=O)N[C@H](C(=O)N[C@@H](Cc1c[nH]c2ccccc12)C(=O)N[C@@H](CCC(=O)O)C(=O)N[C@@H](Cc1ccccc1)C(=O)N[C@@H](Cc1ccc(OP(=O)(O)O)cc1)C(=O)N[C@@H](Cc1ccc(OP(=O)(O)O)cc1)C(=O)N[C@@H](C)C(=O)N[C@@H](C)C(N)=O)C(C)C; target = PTPN1; test = substrate, continuous UV; conditions = pH 7.4; quantity = kcat/Km; result = 8.9 µM⁻¹ s⁻¹
Structure (SMILES) = CC[C@H](C)[C@H](NC(=O)[C@H](Cc1ccc(O)cc1)NC(=O)[C@H](CCC(=O)O)NC(=O)[C@@H](NC(=O)[C@H](CCC(N)=O)NC(=O)[C@H](Cc1ccc(O)cc1)NC(=O)[C@H](CS)NC(=O)[C@@H](NC(=O)[C@@H](N)CC(C)C)[C@@H](C)CC)[C@@H](C)CC)C(=O)O; target = HLA class I histocompatibility antigen, A alpha chain allele A*80:01; scale = direction not given; quantity = z-score; result = 0.38
Structure (SMILES) = N=C(N)NCCC[C@H](NC(=O)c1ccccc1N)C(=O)N[C@@H](Cc1c[nH]cn1)C(=O)N[C@@H](CCCNC(=N)N)C(=O)N[C@@H](CCC(N)=O)C(=O)N1CCC[C@H]1C(=O)N[C@@H](CCCNC(=N)N)C(=O)NCC(=O)N[C@@H](Cc1c[nH]c2ccccc12)C(=O)N[C@@H](CCC(=O)O)C(=O)N[C@@H](CCC(N)=O)C(=O)N[C@@H](CCC(N)=O)C(=O)NCCNc1ccc([N+](=O)[O-])cc1[N+](=O)[O-]; target = FURIN; test = substrate; conditions = pH 7; quantity = kcat; result = 0.54 s⁻¹
Structure (SMILES) = CC(C)C[C@H](NC(=O)[C@H](CC(C)C)NC(=O)[C@@H](N)Cc1c[nH]cn1)C(=O)N[C@@H](CS)C(=O)N[C@@H](CCC(N)=O)C(=O)N[C@@H](C)C(=O)N[C@@H](Cc1ccccc1)C(=O)N[C@@H](CO)C(=O)N[C@H](C(=O)O)C(C)C; target = HLA class I histocompatibility antigen, A alpha chain allele A*80:01; scale = direction not given; quantity = z-score; result = 0.38
Structure (SMILES) = CC[C@H](C)[C@H](NC(=O)[C@H](CCCNC(=N)N)NC(=O)[C@H](CCCCN)NC(=O)[C@H](CCCNC(=N)N)NC(=O)[C@H](C)NC(C)=O)C(=O)N[C@@H](Cc1ccc(OP(=O)(O)O)cc1)C(=O)N[C@@H](C)C(=O)N[C@@H](C)C(N)=O; target = PTPN1; test = substrate, continuous UV; conditions = pH 7.4; quantity = kcat/Km; result = 0.14 µM⁻¹ s⁻¹
Structure (SMILES) = CC(C)C[C@H](NC(=O)[C@H](C)NC(=O)[C@H](CCCNC(=N)N)NC(=O)[C@H](CCCCN)NC(=O)[C@H](CCCCN)NC(=O)[C@H](CCCNC(=N)N)NC(=O)[C@H](CCC(N)=O)NC(=O)CNC(=O)c1ccccc1N)C(=O)N[C@@H](CC(=O)O)C(=O)N[C@H](C(=O)N[C@@H](CCC(N)=O)C(=O)NCCNc1ccc([N+](=O)[O-])cc1[N+](=O)[O-])[C@@H](C)O; target = FURIN; test = substrate; conditions = pH 7; quantity = kcat; result = 3.4 s⁻¹
Structure (SMILES) = CC(=O)N[C@@H](CC(=O)O)C(=O)N[C@H](C(=O)N[C@@H](C)C(=O)N[C@@H](CC(=O)O)C(=O)N[C@@H](C)C(=O)N[C@@H](Cc1ccc(OP(=O)(O)O)cc1)C(=O)N[C@@H](C)C(=O)N[C@@H](C)C(N)=O)[C@@H](C)O; target = PTPN1; test = substrate, continuous UV; conditions = pH 7.4; quantity = kcat/Km; result = 1.1 µM⁻¹ s⁻¹
Structure (SMILES) = C[C@H](NC(=O)[C@H](CCCNC(=N)N)NC(=O)[C@H](CCCNC(=N)N)NC(=O)[C@H](CCCNC(=N)N)NC(=O)c1ccccc1N)C(=O)N[C@@H](CCCCN)C(=O)N[C@@H](CCCNC(=N)N)C(=O)N[C@@H](CO)C(=O)N1CCC[C@H]1C(=O)N[C@@H](CCCCN)C(=O)N[C@@H](Cc1c[nH]cn1)C(=O)N[C@@H](CCC(N)=O)C(=O)NCCNc1ccc([N+](=O)[O-])cc1[N+](=O)[O-]; target = FURIN; test = substrate; conditions = pH 7; quantity = kcat; result = 5.6 s⁻¹
Structure (SMILES) = CC(=O)N[C@@H](C)C(=O)N[C@@H](C)C(=O)N[C@@H](Cc1ccc(OP(=O)(O)O)cc1)C(=O)N[C@@H](C)C(=O)N[C@@H](C)C(=O)N[C@@H](CC(=O)O)C(=O)N[C@@H](CC(=O)O)C(=O)N[C@@H](C)C(N)=O; target = PTPN1; test = substrate; conditions = pH 7.4, catalytic domain; quantity = kcat; result = 29 ± 1 s⁻¹
Structure (SMILES) = CN1C(=O)CCc2cc(CNC(C)(C)[C@@H](O)c3ccccc3)ccc21; target = Sigma intracellular receptor 2 (TMEM97, Homo sapiens, UniProt Q5BJF2); test = binding; scale = reference: Ki σ1 over Ki σ2; quantity = selectivity ratio; result = > 250 fold

Repeated from above:
Structure (SMILES) = CC(C)[C@H](NC(=O)[C@H](CCCNC(=N)N)NC(=O)CN)C(=O)N[C@H](C(=O)N[C@@H](CCC(=O)O)C(=O)N1CCC[C@H]1C(=O)N[C@@H](CO)C(=O)N[C@@H](C)C(=O)N1CCC[C@H]1C(=O)N1CCC[C@H]1C(=O)N[C@@H](Cc1c[nH]c2ccccc12)C(=O)N[C@@H](CCC(=O)O)C(=O)NCC(=O)N1CCC[C@H]1C(=O)O)C(C)C; target = Tumor susceptibility gene 101 protein, UEV domain (Homo sapiens, UniProt Q99816); test = thermal stability; conditions = 800 µM; scale = reference: free protein, higher = stabilisation; quantity = Tm shift; result = 3.7 °C
Structure (SMILES) = CSCC[C@H](N)C(=O)N[C@H](C(=O)N[C@@H](Cc1ccc(O)cc1)C(=O)N[C@@H](CCCCN)C(=O)N[C@@H](C)C(=O)N[C@@H](C)C(=O)N[C@H](C(=O)N[C@@H](CC(C)C)C(=O)O)C(C)C)[C@@H](C)O; target = HLA class I histocompatibility antigen, A alpha chain, allele A*26:01 (Homo sapiens, UniProt P04439); scale = direction not given; quantity = z-score; result = 0.12
